Published values pooled from the literature.
Numbered parts are unrelated; each lists some results of a single study. Several values in a cell are separate wells, animals, samples, runs or records.
Sequence of UniProt O75417 (whole entry, unmodified, looked up): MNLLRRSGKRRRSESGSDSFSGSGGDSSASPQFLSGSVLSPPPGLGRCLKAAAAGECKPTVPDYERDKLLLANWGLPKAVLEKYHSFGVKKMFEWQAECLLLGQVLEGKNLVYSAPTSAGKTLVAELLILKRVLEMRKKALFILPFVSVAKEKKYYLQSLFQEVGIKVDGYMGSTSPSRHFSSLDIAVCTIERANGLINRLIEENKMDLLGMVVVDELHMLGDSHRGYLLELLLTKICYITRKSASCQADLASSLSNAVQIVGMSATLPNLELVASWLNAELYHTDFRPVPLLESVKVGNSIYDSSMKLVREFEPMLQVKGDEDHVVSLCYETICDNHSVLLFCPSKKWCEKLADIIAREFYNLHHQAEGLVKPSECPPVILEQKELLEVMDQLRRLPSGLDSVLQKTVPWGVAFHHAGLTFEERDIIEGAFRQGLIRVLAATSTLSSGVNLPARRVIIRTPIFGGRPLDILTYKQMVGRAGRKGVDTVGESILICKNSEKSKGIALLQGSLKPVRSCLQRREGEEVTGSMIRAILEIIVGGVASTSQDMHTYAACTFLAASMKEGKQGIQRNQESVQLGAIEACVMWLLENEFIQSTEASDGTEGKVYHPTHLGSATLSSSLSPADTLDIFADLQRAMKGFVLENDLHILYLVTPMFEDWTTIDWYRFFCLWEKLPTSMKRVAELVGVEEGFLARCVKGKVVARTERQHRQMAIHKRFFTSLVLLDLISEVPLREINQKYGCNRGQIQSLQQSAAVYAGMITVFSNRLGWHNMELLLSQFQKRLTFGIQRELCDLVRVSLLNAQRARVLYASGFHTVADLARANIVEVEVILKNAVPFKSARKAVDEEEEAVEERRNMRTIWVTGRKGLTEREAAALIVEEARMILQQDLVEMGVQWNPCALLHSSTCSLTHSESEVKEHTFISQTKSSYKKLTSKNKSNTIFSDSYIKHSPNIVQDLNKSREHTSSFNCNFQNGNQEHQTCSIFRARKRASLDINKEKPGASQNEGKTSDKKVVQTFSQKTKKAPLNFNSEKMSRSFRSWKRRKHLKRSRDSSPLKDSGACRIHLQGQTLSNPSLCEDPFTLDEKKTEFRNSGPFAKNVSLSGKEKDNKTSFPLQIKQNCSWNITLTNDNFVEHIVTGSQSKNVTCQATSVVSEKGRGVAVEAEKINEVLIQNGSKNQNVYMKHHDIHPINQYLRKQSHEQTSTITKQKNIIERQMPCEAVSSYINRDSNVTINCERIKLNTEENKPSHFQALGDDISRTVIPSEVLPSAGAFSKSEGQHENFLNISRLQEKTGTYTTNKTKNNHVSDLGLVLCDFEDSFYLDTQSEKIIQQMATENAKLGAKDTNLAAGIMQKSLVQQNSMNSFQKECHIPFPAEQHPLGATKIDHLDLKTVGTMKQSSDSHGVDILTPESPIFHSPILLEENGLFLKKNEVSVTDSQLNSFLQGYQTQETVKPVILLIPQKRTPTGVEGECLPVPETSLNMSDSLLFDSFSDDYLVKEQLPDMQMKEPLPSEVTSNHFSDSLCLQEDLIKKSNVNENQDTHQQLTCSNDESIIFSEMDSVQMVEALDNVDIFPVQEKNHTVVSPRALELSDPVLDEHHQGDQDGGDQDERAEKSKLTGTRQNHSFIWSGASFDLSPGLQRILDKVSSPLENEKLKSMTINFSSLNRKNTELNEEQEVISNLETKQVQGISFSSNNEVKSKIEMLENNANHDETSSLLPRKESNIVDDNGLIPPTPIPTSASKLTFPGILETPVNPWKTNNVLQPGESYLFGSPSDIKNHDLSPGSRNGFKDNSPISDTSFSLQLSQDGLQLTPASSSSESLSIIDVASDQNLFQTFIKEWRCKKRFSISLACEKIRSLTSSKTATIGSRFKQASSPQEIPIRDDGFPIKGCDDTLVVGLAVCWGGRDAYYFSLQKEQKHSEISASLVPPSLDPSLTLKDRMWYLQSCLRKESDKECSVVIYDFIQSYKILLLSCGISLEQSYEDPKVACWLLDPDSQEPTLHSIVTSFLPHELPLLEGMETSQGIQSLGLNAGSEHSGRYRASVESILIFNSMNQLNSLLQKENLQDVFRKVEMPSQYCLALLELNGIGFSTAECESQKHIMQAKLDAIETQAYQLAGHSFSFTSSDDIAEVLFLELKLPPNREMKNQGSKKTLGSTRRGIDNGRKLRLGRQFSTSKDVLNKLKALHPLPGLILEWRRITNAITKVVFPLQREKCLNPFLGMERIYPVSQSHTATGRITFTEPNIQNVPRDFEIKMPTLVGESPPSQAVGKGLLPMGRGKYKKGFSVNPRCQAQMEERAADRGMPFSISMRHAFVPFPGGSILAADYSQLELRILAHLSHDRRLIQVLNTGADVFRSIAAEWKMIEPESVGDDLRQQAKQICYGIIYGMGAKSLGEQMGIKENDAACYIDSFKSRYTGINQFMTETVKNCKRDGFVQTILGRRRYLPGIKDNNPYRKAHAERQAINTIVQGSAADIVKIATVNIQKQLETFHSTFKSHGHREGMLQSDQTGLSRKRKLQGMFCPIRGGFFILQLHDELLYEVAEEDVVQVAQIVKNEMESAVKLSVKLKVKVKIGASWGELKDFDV
Sequence of UniProt P10721 (whole entry, unmodified, looked up): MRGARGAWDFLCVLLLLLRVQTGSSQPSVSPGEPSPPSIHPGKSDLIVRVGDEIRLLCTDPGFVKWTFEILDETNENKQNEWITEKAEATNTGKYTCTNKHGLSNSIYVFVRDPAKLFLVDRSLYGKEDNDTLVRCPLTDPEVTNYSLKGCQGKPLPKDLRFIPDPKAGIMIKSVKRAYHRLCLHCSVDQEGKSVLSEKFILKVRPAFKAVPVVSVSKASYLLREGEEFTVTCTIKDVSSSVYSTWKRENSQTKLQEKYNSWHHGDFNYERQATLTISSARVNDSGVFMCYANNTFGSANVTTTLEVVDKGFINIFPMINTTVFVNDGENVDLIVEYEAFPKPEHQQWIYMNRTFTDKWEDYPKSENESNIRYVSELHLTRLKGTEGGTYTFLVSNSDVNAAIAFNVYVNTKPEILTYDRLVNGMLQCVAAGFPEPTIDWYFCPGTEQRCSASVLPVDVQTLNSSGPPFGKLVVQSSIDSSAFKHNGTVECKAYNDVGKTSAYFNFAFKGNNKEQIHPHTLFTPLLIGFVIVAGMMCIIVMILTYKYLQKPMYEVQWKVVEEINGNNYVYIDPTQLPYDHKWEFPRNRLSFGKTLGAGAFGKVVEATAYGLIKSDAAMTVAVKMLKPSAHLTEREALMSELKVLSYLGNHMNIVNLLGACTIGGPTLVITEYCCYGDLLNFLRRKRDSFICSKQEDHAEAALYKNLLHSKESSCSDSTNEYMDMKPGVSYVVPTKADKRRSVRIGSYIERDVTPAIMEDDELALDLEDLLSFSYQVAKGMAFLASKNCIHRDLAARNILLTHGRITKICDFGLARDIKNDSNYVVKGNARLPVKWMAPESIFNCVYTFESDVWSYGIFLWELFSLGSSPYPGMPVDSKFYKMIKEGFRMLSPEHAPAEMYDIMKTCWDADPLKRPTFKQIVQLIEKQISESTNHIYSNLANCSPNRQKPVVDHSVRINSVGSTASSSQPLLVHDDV
Sequence of UniProt P50750 (whole entry, looked up): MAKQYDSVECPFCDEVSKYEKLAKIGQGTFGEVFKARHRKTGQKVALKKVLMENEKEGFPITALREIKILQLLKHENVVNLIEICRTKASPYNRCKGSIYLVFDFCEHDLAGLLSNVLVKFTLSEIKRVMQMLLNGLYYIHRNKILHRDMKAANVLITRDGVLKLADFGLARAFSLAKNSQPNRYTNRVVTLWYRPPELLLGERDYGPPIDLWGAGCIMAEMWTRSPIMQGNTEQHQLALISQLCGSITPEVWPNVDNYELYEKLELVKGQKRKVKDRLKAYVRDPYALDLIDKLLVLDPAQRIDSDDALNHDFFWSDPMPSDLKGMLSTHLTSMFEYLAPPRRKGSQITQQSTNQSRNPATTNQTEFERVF
Sequence of UniProt Q9NWZ3 (whole entry, looked up): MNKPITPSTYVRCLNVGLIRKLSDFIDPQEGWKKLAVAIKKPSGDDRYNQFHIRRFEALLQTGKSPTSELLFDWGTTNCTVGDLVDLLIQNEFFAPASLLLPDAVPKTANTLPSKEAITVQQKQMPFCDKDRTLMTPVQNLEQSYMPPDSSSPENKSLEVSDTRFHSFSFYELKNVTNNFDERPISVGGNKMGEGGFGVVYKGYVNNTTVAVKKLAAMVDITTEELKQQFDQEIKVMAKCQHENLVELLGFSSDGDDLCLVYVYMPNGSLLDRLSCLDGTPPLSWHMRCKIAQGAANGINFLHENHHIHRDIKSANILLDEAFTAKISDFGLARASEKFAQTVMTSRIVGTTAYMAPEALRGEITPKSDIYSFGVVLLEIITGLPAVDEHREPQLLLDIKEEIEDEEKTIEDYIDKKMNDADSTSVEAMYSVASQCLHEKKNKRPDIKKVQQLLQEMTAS
Sequence of UniProt P07948 (whole entry, looked up): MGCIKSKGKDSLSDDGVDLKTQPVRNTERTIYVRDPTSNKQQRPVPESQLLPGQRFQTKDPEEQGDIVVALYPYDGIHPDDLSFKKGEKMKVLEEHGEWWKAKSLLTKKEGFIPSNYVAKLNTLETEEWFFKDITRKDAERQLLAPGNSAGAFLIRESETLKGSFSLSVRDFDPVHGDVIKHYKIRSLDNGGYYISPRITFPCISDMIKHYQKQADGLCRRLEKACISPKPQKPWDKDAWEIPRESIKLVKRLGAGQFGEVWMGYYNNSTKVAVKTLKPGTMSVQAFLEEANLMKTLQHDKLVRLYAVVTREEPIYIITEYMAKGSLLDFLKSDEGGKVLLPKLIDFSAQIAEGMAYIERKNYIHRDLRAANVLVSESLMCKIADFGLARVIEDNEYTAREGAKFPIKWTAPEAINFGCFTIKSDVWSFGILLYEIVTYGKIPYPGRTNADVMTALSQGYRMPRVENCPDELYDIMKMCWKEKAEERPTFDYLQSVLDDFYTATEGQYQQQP

Set 1
Host: mouse
Matrix: microsomes or S9
Tested at: 2 µM
Time: 0.5 h
Compound	remaining compound
CCOc1cc(=O)n2c(c1C(=O)Nc1ccccc1C(=O)OC)CCCC2	< 1%
CCn1nc(C)c(S(=O)(=O)N(C)Cc2nn(C)c(Cl)c2Cl)c1C	51.9%
Cc1cc(=O)[nH]c(-n2nc(C)cc2NC(=O)C(C)(C)Oc2ccc(Cl)cc2)n1	27.8%
O=S1(=O)N=C(N(CCc2ccccc2)Cc2ccccc2)c2ccccc21	1.3%
COc1c2c(cc3c1OCO3)CCN(C)C(C(=O)c1ccc(Br)cc1)=C2	0%
Fc1cc2nc(-c3cnc(-c4cnccn4)s3)[nH]c2cc1F	0.893%
Cc1ccc(-c2ccc(C(CN3CCCC3)N(C)C(=O)CN3C(=O)COc4cc(Cl)c(Cl)cc43)cc2)cn1 (stereo not shown)	58.2%
COC(=O)CCN1C(=O)c2ccncc2/C1=C\c1ccccc1	0.0278%
O=c1ccc(-c2ccc(S(=O)(=O)NCCCN3CCN(c4ccccc4)CC3)s2)n[nH]1	66.3%

Set 2
Structure (SMILES): Cn1cc(/C=C2\C(=O)Nc3ccc(S(N)(=O)=O)cc32)c2ccccc21
Read-out: enzyme activity
Action: inhibitor
Tested at: 0.5 µM
Reference: control
target	remaining activity [%]
MKNK2 (Homo sapiens, UniProt Q9HBH9)	71.1
MAP3K10 (Homo sapiens, UniProt Q02779)	95.9
CHEK1 (Homo sapiens, UniProt O14757)	19.5
IRAK4 (Homo sapiens, UniProt Q9NWZ3)	2.98
MAPK12 (Homo sapiens, UniProt P53778)	101
PLK2 (Homo sapiens, UniProt Q9NYY3)	104
MAP4K2 (Homo sapiens, UniProt Q12851)	17.4
EPHA5 (Homo sapiens, UniProt P54756)	69.3
PRKG1 (Homo sapiens, UniProt Q13976)	81.1
Cyclin-dependent kinase 9, with cyclin T1 (CDK9, Homo sapiens, UniProt P50750)	65
CSNK1A1 (Homo sapiens, UniProt P48729)	105
AKT3 (Homo sapiens, UniProt Q9Y243)	97.4
STK38 (Homo sapiens, UniProt Q15208)	53.1
PRKCI (Homo sapiens, UniProt P41743)	99.6
MAPK13 (Homo sapiens, UniProt O15264)	105
LRRK2 (Homo sapiens, UniProt Q5S007)	9.76
MAP2K6 (Homo sapiens, UniProt P52564)	116
KIT (Homo sapiens, UniProt P10721)	68.2
LYN (Homo sapiens, UniProt P07948)	43.8
CSNK2A1 (Homo sapiens, UniProt P68400)	84.7
NEK4 (Homo sapiens, UniProt P51957)	81
WNK2 (Homo sapiens, UniProt Q9Y3S1)	97.7
PRKCD (Homo sapiens, UniProt Q05655)	91.3
BTK (Homo sapiens, UniProt Q06187)	30.4

Set 3
Structure (SMILES): Cc1cc(-n2nc(Cc3cc(F)cc(C(F)(F)F)c3)nc2C)ccc1C(N)=O
Method: competition with immobilised ligand
Tested at: 1 µM
target	read-out	remaining binding
AKT1 (Homo sapiens, UniProt P31749)	cell-free assay	94%
PIK3CA (Homo sapiens, UniProt P42336, H1047Y)	cell-free assay	78%
MAP2K2 (Homo sapiens, UniProt P36507)	cell-free assay	100%
Tyrosine-protein kinase ABL1, non-phosphorylated (ABL1, Homo sapiens, UniProt P00519, H396P)	cell-free assay	97%
MAP3K14 (Homo sapiens, UniProt Q99558)	cell-free assay	100%
Ribosomal protein S6 kinase alpha-3, N-terminal kinase domain (RPS6KA3, Homo sapiens, UniProt P51812)	cell-free assay	95%
CILK1 (Homo sapiens, UniProt Q9UPZ9)	binding	100%
PAK2 (Homo sapiens, UniProt Q13177)	cell-free assay	75%
SGK3 (Homo sapiens, UniProt Q96BR1)	cell-free assay	80%
ERBB3 (Homo sapiens, UniProt P21860)	cell-free assay	100%
CIT (Homo sapiens, UniProt O14578)	cell-free assay	95%
YES1 (Homo sapiens, UniProt P07947)	cell-free assay	100%
PIKFYVE (Homo sapiens, UniProt Q9Y2I7)	cell-free assay	70%
CLK4 (Homo sapiens, UniProt Q9HAZ1)	cell-free assay	96%
KIT (Homo sapiens, UniProt P10721, V559D/V654A)	cell-free assay	97%

Further values, each from its own experiment
Structure (SMILES)	target	read-out	action	tested at	reference	measurement	result
COc1cc2c(Nc3ccc(Br)cc3F)ncnc2cc1OCC1CCN(C)CC1	DNA polymerase theta, ATPase domain (POLQ, Homo sapiens, UniProt O75417)	enzyme activity	inhibitor	77 µM	untreated	remaining activity	90.8% and 67.9% and 81%

Excerpt of the above (set 3):
target	read-out	remaining binding
Tyrosine-protein kinase ABL1, non-phosphorylated (ABL1, Homo sapiens, UniProt P00519, H396P)	cell-free assay	97%
MAP3K14 (Homo sapiens, UniProt Q99558)	cell-free assay	100%
Ribosomal protein S6 kinase alpha-3, N-terminal kinase domain (RPS6KA3, Homo sapiens, UniProt P51812)	cell-free assay	95%
CILK1 (Homo sapiens, UniProt Q9UPZ9)	binding	100%
PAK2 (Homo sapiens, UniProt Q13177)	cell-free assay	75%
SGK3 (Homo sapiens, UniProt Q96BR1)	cell-free assay	80%
ERBB3 (Homo sapiens, UniProt P21860)	cell-free assay	100%
